Experimental data collected from several papers.
Compare with care: the assays were run in different laboratories.
Organism: Enterococcus faecalis

CC1=CC2(C)C(=C(C)C3C4CC(C)CC(C)C4C4Oc5ccc(cc5)CC5(O)NC(=O)C(=C(O)C2C43)C5Nc2ncnc3c2ncn3C2OC(CO)C(O)C2O)C1C (centres unmarked) — MIC (microbial growth, broth dilution; ATCC51299; drug-resistant strain): 12.5 µM
CC[C@H](C)[C@H](NC(=O)[C@H](NC(=O)[C@@H](CCC(N)=O)NC(=O)[C@@H](N)COC(=O)[C@@H](NC(=O)[C@@H](Cc1ccccc1)NC)[C@@H](C)CC)[C@@H](C)CC)C(=O)N[C@@H](CO)C(=O)N[C@H]1C(=O)N[C@@H](C)C(=O)N[C@@H](C2CCCCC2)C(=O)N[C@@H]([C@@H](C)CC)C(=O)O[C@H]1C — MIC (broth microdilution; ATCC 51299, vancomycin-resistant, brain heart infusion broth; 16 h, 37 °C): 0.5 µg/mL
COc1ccc(CCNc2cc(-c3ccccc3)nc3ncnn23)cc1 — MIC (microbial growth, broth dilution): > 64 µM
CN1C(=O)[C@@H]2NC(=O)[C@@H]3NC(=O)[C@@H](c4ccc(O)cc4)NC(=O)[C@H](NC(=O)C(NCc4cccc(-c5ccc(F)cc5)c4)c4ccc(O)cc4)Cc4c[nH]c5cc(ccc45)-c4cc3cc(c4O)Oc3ccc(cc3)C[C@H]1C(=O)N[C@@H](C(=O)O)c1ccc(O)c(c1)Oc1ccc2cc1 (some centres unmarked) — MIC (brain heart infusion medium): 16 to 32 µg/mL
CC[C@H](C)[C@H](NC(=O)[C@@H](Cc1ccccc1)NC)C(=O)N[C@@H](CO)C(=O)N[C@H](CCC(N)=O)C(=O)N[C@@H](C(=O)N[C@H](C(=O)OC[C@H](N)C(=O)N[C@H]1C(=O)N[C@@H](C)C(=O)N[C@@H](C2CCCCC2)C(=O)N[C@@H]([C@@H](C)CC)C(=O)O[C@H]1C)[C@@H](C)CC)[C@@H](C)CC — MIC (broth microdilution; ATCC 51299, vancomycin-resistant, brain heart infusion broth; 16 h, 37 °C): 0.5 µg/mL
CCCCCCCCCCCC[S+]([O-])CC1OC(OC2C(N)CC(N)C(OC3OC(CN)C(O)CC3N)C2O)C(O)C(N)C1O (mixture of isomers) — MIC (ATCC 29212): 18.8 µg/mL
c1ccc(CCNC2CCCc3c2[nH]c2ccc(C4CCCCC4)cc32)cc1 (centres unmarked) — MIC (broth microdilution; JH2-2, cation-adjusted MHB): 2 µg/mL
COc1ccc2nc(C)cc(OCC(=O)Nc3cc(C)cc(C)c3)c2c1 — MIC (microbial growth, broth dilution): 64 µM
CN1C(=O)[C@@H]2NC(=O)[C@@H]3NC(=O)[C@@H](c4ccc(O)cc4)NC(=O)[C@H](NC(=O)C(NCc4cccc(C(F)(F)F)c4)c4ccc(O)cc4)Cc4c[nH]c5cc(ccc45)-c4cc3cc(c4O)Oc3ccc(cc3)C[C@H]1C(=O)N[C@@H](C(=O)O)c1ccc(O)c(c1)Oc1ccc2cc1 (some centres unmarked) — MIC (brain heart infusion medium): 8 µg/mL
CN[C@@H]1[C@H](O)[C@H](NC)[C@H]2O[C@]3(O)[C@H](O[C@@H]2[C@H]1O)O[C@H](C)C[C@@]3(O)CNCc1ccc(OC(F)(F)F)cc1 — MIC (ATCC 33186): 25 to 50 µg/mL
COc1cc(/C=N/N2C(=O)c3ccccc3NC2c2ccc(O)c(OC)c2)ccc1O (centres unmarked) — MIC (broth microdilution; VRE 368, vancomycin-resistant, brain-heart infusion; 24 h): > 256 µg/mL
CN1C(=O)[C@@H]2NC(=O)[C@@H]3NC(=O)[C@@H](c4ccc(O)cc4)NC(=O)[C@H](NC(=O)C(NCc4cc(F)cc(F)c4F)c4ccc(O)cc4)Cc4c[nH]c5cc(ccc45)-c4cc3cc(c4O)Oc3ccc(cc3)C[C@H]1C(=O)N[C@@H](C(=O)O)c1ccc(O)c(c1)Oc1ccc2cc1 (some centres unmarked) — MIC (brain heart infusion medium): 8 µg/mL
CCc1ccc([C@@H]2C[C@H](C(F)(F)F)n3ncc(C(=O)NCc4ccc(OC)cc4)c3N2)cc1 — MIC (microbial growth, broth dilution): > 64 µM
CN1C(=O)[C@@H]2NC(=O)[C@@H]3NC(=O)[C@@H](c4ccc(O)cc4)NC(=O)[C@H](NC(=O)C(NCc4ccc(Br)cc4)c4ccc(O)cc4)Cc4c[nH]c5cc(ccc45)-c4cc3cc(c4O)Oc3ccc(cc3)C[C@H]1C(=O)N[C@@H](C(=O)O)c1ccc(O)c(c1)Oc1ccc2cc1 (some centres unmarked) — MIC (brain heart infusion medium): 8 µg/mL
O=C1c2ccccc2NC(c2ccc(O)c(O)c2)N1/N=C/c1ccc(O)c(O)c1 (centres unmarked) — MIC (broth microdilution; VRE 368, vancomycin-resistant, brain-heart infusion; 24 h): > 256 µg/mL
CN1C(=O)[C@@H]2NC(=O)[C@@H]3NC(=O)[C@@H](c4ccc(O)cc4)NC(=O)[C@H](NC(=O)C(NCc4cc(Cl)cc(Cl)c4Cl)c4ccc(O)cc4)Cc4c[nH]c5cc(ccc45)-c4cc3cc(c4O)Oc3ccc(cc3)C[C@H]1C(=O)N[C@@H](C(=O)O)c1ccc(O)c(c1)Oc1ccc2cc1 (some centres unmarked) — MIC (brain heart infusion medium): 8 µg/mL
CCN1CCNC1=[S+][Ag-3]([O][N+](=O)[O-])([P+](c1ccccc1)(c1ccccc1)c1ccccc1)[P+](c1ccccc1)(c1ccccc1)c1ccccc1 — MIC (agar dilution; MTCC 439, Mueller Hinton agar; 24 h, 37 °C): 10 µg/mL
CN[C@@H]1[C@H](O)[C@H](NC)[C@H]2O[C@]3(O)[C@H](O[C@@H]2[C@H]1O)O[C@H](C)C[C@]3(O)CNCc1ccc(F)cc1 — MIC (ATCC 33186): > 200 µg/mL
CN1C(=O)[C@@H]2NC(=O)[C@@H]3NC(=O)[C@@H](c4ccc(O)cc4)NC(=O)[C@H](NC(=O)C(N)c4ccc(O)cc4)Cc4c[nH]c5cc(ccc45)-c4cc3cc(c4O)Oc3ccc(cc3)C[C@H]1C(=O)N[C@@H](C(=O)O)c1ccc(O)c(c1)Oc1ccc2cc1 (some centres unmarked) — MIC (brain heart infusion medium): 8 to 16 µg/mL
Oc1ccccc1C1Nc2ccccc2C2=[O+][Cu-2]3([Cl])[O]c4ccccc4C=[N+]3N21 (centres unmarked) — MIC (broth microdilution; vancomycin-resistant 368; 24 h): 256 µg/mL
Cc1cccc(-c2nc(Nc3ccncn3)c3sccc3n2)n1 — MIC (microbial growth, broth dilution): > 64 µM
CN1C(=O)[C@@H]2NC(=O)[C@@H]3NC(=O)[C@@H](c4ccc(O)cc4)NC(=O)[C@H](NC(=O)C(NCc4ccc(B(O)O)cc4)c4ccc(O)cc4)Cc4c[nH]c5cc(ccc45)-c4cc3cc(c4O)Oc3ccc(cc3)C[C@H]1C(=O)N[C@@H](C(=O)O)c1ccc(O)c(c1)Oc1ccc2cc1 (some centres unmarked) — MIC (brain heart infusion medium): 8 µg/mL
O=[N+]([O-])c1ccc2c(c1)C=[N+]1N3C(=[O+][Cu-2]1([Cl])[O]2)c1ccccc1NC3c1cc([N+](=O)[O-])ccc1O (centres unmarked) — MIC (broth microdilution; vancomycin-resistant 368; 24 h): 256 µg/mL
CN[C@@H]1[C@H](O)[C@H](NC)[C@H]2O[C@]3(O)[C@H](O[C@@H]2[C@H]1O)O[C@H](C)C[C@@]3(O)CNCc1ccc(Cl)cc1 — MIC (ATCC 33186): 6.3 to 12.5 µg/mL
CC(C)[C@H](NC(=O)[C@H](CCCCN)NC(=O)[C@H](CCCNC(=N)N)NC(=O)CNC(=O)[C@H](C)NC(=O)[C@H](CC(N)=O)NC(=O)[C@H](CCCNC(=N)N)NC(=O)[C@@H](NC(=O)[C@H](CCCCN)NC(=O)[C@H](CC(=O)O)NC(=O)[C@@H](NC(=O)[C@@H](NC(=O)[C@H](CCCNC(=N)N)NC(=O)[C@H](CCCNC(=N)N)NC(=O)[C@H](Cc1c[nH]c2ccccc12)NC(=O)[C@H](Cc1c[nH]c2ccccc12)NC(=O)CN)[C@@H](C)O)C(C)C)C(C)C)C(=O)O — MIC (clinical strain; 18 h, 37 °C): > 256 µg/mL
CC[C@H](C)[C@H](NC(=O)[C@@H](Cc1ccccc1)NC)C(=O)OC[C@H](N)C(=O)N[C@H](CCC(N)=O)C(=O)N[C@@H](C(=O)N[C@H](C(=O)OC[C@H](N)C(=O)N[C@H]1C(=O)N[C@@H](C)C(=O)N[C@@H](C2CCCCC2)C(=O)N[C@@H]([C@@H](C)CC)C(=O)O[C@H]1C)[C@@H](C)CC)[C@@H](C)CC — MIC (broth microdilution; ATCC 51299, vancomycin-resistant, brain heart infusion broth; 16 h, 37 °C): 1 µg/mL
CN1C(=O)[C@@H]2NC(=O)[C@@H]3NC(=O)[C@@H](c4ccc(O)cc4)NC(=O)[C@H](NC(=O)C(NCc4cccc(O)c4O)c4ccc(O)cc4)Cc4c[nH]c5cc(ccc45)-c4cc3cc(c4O)Oc3ccc(cc3)C[C@H]1C(=O)N[C@@H](C(=O)O)c1ccc(O)c(c1)Oc1ccc2cc1 (some centres unmarked) — MIC (brain heart infusion medium): 8 to 16 µg/mL
COc1cc(/C=N/N2C(=O)c3ccccc3NC2c2cc(OC)c(O)c([N+](=O)[O-])c2)cc([N+](=O)[O-])c1O (centres unmarked) — MIC (broth microdilution; VRE 368, vancomycin-resistant, brain-heart infusion; 24 h): 256 µg/mL
c1cc2c(s1)CCOC21CCN(Cc2ccc3c(c2)OCCO3)CC1 — MIC (microbial growth, broth dilution): 64 µM
COc1cccc(C2Nc3ccccc3C3=[O+][Cu-2]4([Cl])[O]c5c(cccc5OC)C=[N+]4N32)c1O (centres unmarked) — MIC (broth microdilution; vancomycin-resistant 725 B; 24 h): > 256 µg/mL
CNC(CC(C)C)C(=O)NC1C(=O)NC(CC(N)=O)C(=O)NC2C(=O)NC3C(=O)NC(C(=O)NC(C(=O)O)c4cc(O)cc(O)c4-c4cc3ccc4O)C(O)c3ccc(c(Cl)c3)Oc3cc2cc(c3OC2OC(CO)C(O)C(O)C2OC2CC(C)(NCc3ccc(-c4ccc(Cl)cc4)cc3)C(O)C(C)O2)Oc2ccc(cc2Cl)C1O (centres unmarked) — MIC (VanB ATCC 51299): 0.08 µg/mL
Cc1cccc(-c2nc(Nc3ccncn3)c3c(C)csc3n2)n1 — MIC (microbial growth, broth dilution): 16 µM

Excerpt of the above:
CCc1ccc([C@@H]2C[C@H](C(F)(F)F)n3ncc(C(=O)NCc4ccc(OC)cc4)c3N2)cc1 — MIC (microbial growth, broth dilution): > 64 µM
CN1C(=O)[C@@H]2NC(=O)[C@@H]3NC(=O)[C@@H](c4ccc(O)cc4)NC(=O)[C@H](NC(=O)C(NCc4ccc(Br)cc4)c4ccc(O)cc4)Cc4c[nH]c5cc(ccc45)-c4cc3cc(c4O)Oc3ccc(cc3)C[C@H]1C(=O)N[C@@H](C(=O)O)c1ccc(O)c(c1)Oc1ccc2cc1 (some centres unmarked) — MIC (brain heart infusion medium): 8 µg/mL
O=C1c2ccccc2NC(c2ccc(O)c(O)c2)N1/N=C/c1ccc(O)c(O)c1 (centres unmarked) — MIC (broth microdilution; VRE 368, vancomycin-resistant, brain-heart infusion; 24 h): > 256 µg/mL
CN1C(=O)[C@@H]2NC(=O)[C@@H]3NC(=O)[C@@H](c4ccc(O)cc4)NC(=O)[C@H](NC(=O)C(NCc4cc(Cl)cc(Cl)c4Cl)c4ccc(O)cc4)Cc4c[nH]c5cc(ccc45)-c4cc3cc(c4O)Oc3ccc(cc3)C[C@H]1C(=O)N[C@@H](C(=O)O)c1ccc(O)c(c1)Oc1ccc2cc1 (some centres unmarked) — MIC (brain heart infusion medium): 8 µg/mL
